Results of several laboratories.
Lines come from different studies, so protocols differ. Numbers after ± are the reported error.
Cell line: HaCaT

SMILES	assay	setting	endpoint	result
CC1(C)C=Cc2c(O)cc(/C=C/c3ccc(O)cc3O)cc2O1	cell growth or viability, MTT	72 h	IC50	80 µM
CCOP(=O)(OCC)C(Cc1cccc(F)c1F)Nc1cccc(C)c1 (stereo not shown)	cell growth or viability, MTT	48 h	IC50	67.9 µM
Oc1cc2c3c(c1)COc1cc(O)cc(c1-3)CC2	cell growth or viability, MTT	48 h	IC50	58.8 µM
CCCCN(CCCC)CC(O)COc1c2ccoc2c(OC)c2oc(CC)cc(=O)c12 (stereo not shown)		25 µM, 72 h	LDH release	6.8%
CCCCCCCCCCCCCCCCCC(=O)N[C@@H](CCCCN)C(=O)N[C@@H](CCCCN)C(=O)N[C@@H](CCCCN)C(=O)N[C@@H](CCCCN)C(=O)N[C@@H](CCCCN)C(N)=O	cytotoxicity		IC50	52 µg/mL
Cc1c(C)c(C)[c-](C)c1C.[C-]#[O+].[C-]#[O+].[C-]#[O+].[Cl-].[Cl-].[Cl-].[Ir+3].[Re+].c1cnc(-c2ncccn2)nc1	cell growth or viability, MTT	48 h	IC50	235 µM
CCn1cc(/C=C/c2sc3ccccc3[n+]2CC)c2ccccc21	cell growth or viability, MTT	24 h	IC50	3.31 µM
O=C1c2ccc(O)cc2OC1(O)Cc1ccc(O)c(O)c1 (stereo not shown)	cell growth or viability, MTT	72 h	IC50	> 400 µM
CCOP(=O)(OCC)C(Cc1c(F)c(F)c(Sc2ccc(OC)cc2)c(F)c1F)Nc1ccccc1 (stereo not shown)	cell growth or viability, MTT	48 h	IC50	19.8 µM
CCCCCCCCCCCCCCCC(=O)N[C@@H](CCCCN)C(=O)N[C@@H](CCCCN)C(=O)N[C@@H](CCCCN)C(=O)N[C@@H](CCCCN)C(=O)N[C@@H](CCCCN)C(N)=O	cytotoxicity		IC50	17.6 µg/mL
CCOP(=O)(OCC)C(Cc1ccc(F)cc1)Nc1ccc(Cl)cc1 (stereo not shown)	cell growth or viability, MTT	48 h	IC50	> 100 µM
CSCC[C@H](NC(=O)[C@@H]1CCCN1)C(=O)N[C@@H](CCCNC(=N)N)C(=O)O	CCK-8	100 µg/mL, 72 h, 0.4 % serum	viability	131 ± 3.74%
CCCCCCCCCC(=O)N[C@@H](Cc1ccccc1)C(=O)N[C@@H](Cc1ccccc1)C(=O)N[C@@H](Cc1ccccc1)C(=O)N[C@@H](Cc1ccccc1)C(=O)N[C@@H](CCCCN)C(=O)N[C@@H](CCCCN)C(=O)N[C@@H](CCCCN)C(=O)N[C@@H](CCCCN)C(=O)N[C@@H](CCCCN)C(N)=O	cytotoxicity		IC50	> 150 µg/mL
